Experimental data collected from several papers.
Parts stem from different laboratories: compare values within a part only. Positions count from the first letter of the parent shown.

Sample 1 — method: protein-binding microarray; form: double-stranded DNA, one strand shown; matrix: in vitro; tested at: 0.8 µM; setting: whole 60-bp probe, no competitor; reading: higher = stronger binding; measurement: fluorescence intensity; all sequences stand within: … GTCTTGATTCGCTTGACGCTGCTG
Target: Centromere-binding protein 1, full length, N-terminal tag (CBF1, Saccharomyces cerevisiae, UniProt P17106, residues 1-351)
UniProt P17106, sequence (whole entry, looked up): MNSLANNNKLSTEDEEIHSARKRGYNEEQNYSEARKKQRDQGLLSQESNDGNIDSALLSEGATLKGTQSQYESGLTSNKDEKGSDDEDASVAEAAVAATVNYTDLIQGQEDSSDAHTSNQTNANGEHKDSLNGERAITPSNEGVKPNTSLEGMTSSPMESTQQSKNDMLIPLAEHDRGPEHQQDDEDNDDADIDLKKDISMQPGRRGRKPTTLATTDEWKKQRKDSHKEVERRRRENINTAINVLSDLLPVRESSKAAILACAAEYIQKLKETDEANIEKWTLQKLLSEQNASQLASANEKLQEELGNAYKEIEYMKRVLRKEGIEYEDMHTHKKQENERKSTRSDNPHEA
GAATTCCAAGGTAACCACGTCACATTATACTCATAG: 671 a.u.
CTAATTTCGATCACCATCGTGGTGCTCTTTGTCTTC: 536 a.u.
CCTAACTACTATACCCACGTGCGATAGCTTCGTACA: 3620 a.u.
GAAAATAACAGCAAACAGGTGATGTAACTTATATAG: 662 a.u.
GAAATGTTTGGTTAGCACATGTGTAACTACTGCTAG: 987 a.u.
GAATTCCTGTTCTGGTGCATGATGCTGGAATAATAG: 570 a.u.
TGTACGAAGCTATGGCACGAGATTATAGTAGTTAGG: 783 a.u.
GAACTTTACCGTTTGCGTGCTGATTTATGATGTTAG: 595 a.u.
GAATTGAAATAAGAACACGTTGGGTATAATCTATAG: 621 a.u.
GAATATACTGTGGGAAAAATCACGTGCGAGAAATAG: 14000 a.u.
CTACCACTTTTTTATCACGTTTCTTAGCGTTATTTC: 1440 a.u.
CTAACCATTGAAGGGTCGGTGACGTGGAAATTTTTC: 510 a.u.
GAAATATACATTCCGGGTCACATGTGCCCAAATTAG: 11000 a.u.
GAACGAATAGAGTATCAGCTGACGGAATGGAGATAG: 2010 a.u.
GAAACCCCCAATCCACGTGTGTTTTATACGCTTTAG: 1740 a.u.
GAAAATTAGCATATTCACGCGCGACTACCAAACTAG: 568 a.u.
GAAAACTGCTGTGGTGTCATGATAGACGAAATGTAG: 616 a.u.
GAATTTTATCTCTCTCTGATGACGTGATATCTTTAG: 823 a.u.
GAACCTCGTACTCATGTGATGGAGAAAGGAATTTAG: 1200 a.u.
GAACCATAAAGCCTTCACGTTATACTTTTTTTTTAG: 609 a.u.
GAATGTTTCGTCCACCTGACCGAGCCGGCAGCTTAG: 2470 a.u.
GAACTGAAAGATTGATTGGTGATGCTGCTAAGATAG: 582 a.u.
GAAAGGGTGCTGAATCGTGATCACGACCCGCGGTAG: 2650 a.u.

Sample 2 — method: RNA Bind-n-Seq; form: RNA; matrix: in vitro; tested at: 200 nM; setting: whole 134-nt RNA, ends assumed; added: 150 mM KCl; reference: input library; reading: higher = stronger binding; measurement: log2 enrichment
Target: Fragile X messenger ribonucleoprotein 1, C-terminal low-complexity region (Fmr1, Mus musculus, UniProt P35922)
All sequences stand within: GGGAGUUCUACAGUCCGACGAUC … UGGAAUUCUCGGGUGUCAAGG
CCUGUGCUACACAUCGUAUGUACCGAAUCGGGAAAAAAAGGAAAAAAAGGAAAAAAAGGGAAAGUAUUAUGUUACGCCGUUCGGAUCUGC: -0.626
AAGUCCUGUGCUACACAUCGUAUGUACCGAAUCGGAAAGGGGAAAGGGGAAAGGGGAAAGUAUUAUGUUACGCCGUUCGGAUCUGCACUU: 0.171
UGGGAGGUGGAUUUUGUUUAUUUUUUUAGCUCAUUUCCAGGGGUGGGAAUUUUUUUUUAAUAUGUGUCAUGAAUAAAGUAGUUUUUGAAA: 0.307
UGCUGUUCAGGUGGUGGAGAAGAAGAUGGAACCCCAGGCUGCCUGGCUACAGAGCCUGGAGGGAUGCAUGUGGACAGCCAAGAAGAAGCU: -1.76
UCCUGUGCUACACAUCGUAUGUACCGAAUCGGGGCCCCCGGGGCCCCCGGGCCCCCGGGAAAGUAUUAUGUUACGCCGUUCGGAUCUGCA: -1.29
UGUGCUACACAUCGUAUGUACCGAAUCGGGGUUUUUGGGGUUUUUUUGGGGAAAAAAAGGGGAAAGUAUUAUGUUACGCCGUUCGGAUCU: 0.437
UCAAGUCCUGUGCUACACAUCGUAUGUACCGAAUCGGGUUUGGGUUUGGGAGGGAAAGUAUUAUGUUACGCCGUUCGGAUCUGCACUUCC: 1.25
UUUUAUGUGGAGUUAUGAAGACCUACAGGCAGAGAGAGAAACAGGGGAGCAAGGUGCAAGAGUCCACAAAGGGACCUGAUGAAGCGAAGA: -0.0187
CAAAAACAACACGCACCCACACAGACACAGAGGGAAGGGGUUGGGAUGGGGACAGGGUGCACAGCAGGGCGGGGUAGGACCCCAGCCCCU: 1.33
UCAAGUCCUGUGCUACACAUCGUAUGUACCGAAUCGGGUGGGAAAAAGGGAGGGAAAGUAUUAUGUUACGCCGUUCGGAUCUGCACUUCC: 1.13
UGGCCCUGGUGGCAUGCGGGGAGGAAGAGGUGGCCUCAUGGAUCGUGGUGGUCCCGGUGGAAUGUUCAGAGGUGGCCCUGGUGGAGACAG: 0.181
AAGUCCUGUGCUACACAUCGUAUGUACCGAAUCGGUUUUUUUGGUGGAAAAAAAGGAAAGUAUUAUGUUACGCCGUUCGGAUCUGCACUU: -0.898
UCAAGUCCUGUGCUACACAUCGUAUGUACCGAAUCGGAAAGGAAAGGAAAAAGGAAAGUAUUAUGUUACGCCGUUCGGAUCUGCACUUCC: -0.583
AAGUCCUGUGCUACACAUCGUAUGUACCGAAUCGGGGCCCCGGGGCCCCGGCCCCGGAAAGUAUUAUGUUACGCCGUUCGGAUCUGCACU: -0.879

Sample 3 — target: CEBPB, bZIP domain (human); method: DHFR protein complementation; matrix: yeast; reference: wild-type JUN-FOS pair; reading: higher = stronger binding; measurement: binding fitness
Setting: single substitutions, most at no-binding floor
Starting sequence: JUN, bZIP domain (human); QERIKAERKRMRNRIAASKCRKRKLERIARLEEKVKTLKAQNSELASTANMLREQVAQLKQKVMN; partner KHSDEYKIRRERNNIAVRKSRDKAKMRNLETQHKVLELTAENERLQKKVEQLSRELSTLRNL
A49W: -1.53 natural log
M51Q: -1.16 natural log
L52H: -1.44 natural log
E32C: -1.52 natural log
A57V: -1.38 natural log
R53S: -0.935 natural log
R30K: -1.26 natural log
S43V: -1.35 natural log
V56T: -1.48 natural log
Q55G: -1.46 natural log
E44A: -1.35 natural log
T37S: -1.39 natural log
M51S: -1.28 natural log
A29Y: -1.33 natural log
N42Y: -1.5 natural log
A46G: -1.42 natural log

Sample 4 — method: RNA Bind-n-Seq; form: RNA; matrix: in vitro; tested at: not given; setting: RNA with constant flanks, ends assumed; reference: input RNA pool; reading: higher = stronger binding; measurement: bound/input enrichment
Target: RING finger protein unkempt homolog, zinc fingers 1-6, GST-SBP tag (UNK, Homo sapiens, UniProt Q9C0B0, residues 30-357)
All sequences stand within: GGGAGUUCUACAGUCCGACGAUC … CAACAGAGGAUUGAGCAUCA
Target sequence (chain): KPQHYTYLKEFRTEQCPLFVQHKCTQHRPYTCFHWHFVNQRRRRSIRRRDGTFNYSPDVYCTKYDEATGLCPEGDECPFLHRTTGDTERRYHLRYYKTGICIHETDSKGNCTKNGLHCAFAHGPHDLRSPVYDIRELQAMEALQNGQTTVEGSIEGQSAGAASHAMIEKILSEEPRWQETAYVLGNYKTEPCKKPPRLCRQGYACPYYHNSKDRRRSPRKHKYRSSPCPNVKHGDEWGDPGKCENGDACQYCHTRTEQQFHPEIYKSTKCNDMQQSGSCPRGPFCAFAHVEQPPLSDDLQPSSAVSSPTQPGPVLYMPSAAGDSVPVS
GAUAUCUGUCGUAGAAACCUCGACAUUGAGCGCCCAACCUACACUAACCUAAACAGGUUGACCGGUCAAAUUGUGUCUUCCAUCACUGCUUCCCUCAGAUUUGAUGGGGCCCUGAAUGUU: 0.227 ratio
UUGUGCAUAUGAUGCUUGAGAUGGUUUUGCAGAUGCAGACAUCGCUGCAAGGUCAUUCUAACCGAGACAAGCGGUAUUUUAAACCUUUGAAAGGAAUGGAUGUAACUGUACGUUGGUACA: 0.164 ratio
CAUCUCGCCCACGUGGUGUUAAGCGUCGCUGGAGACUUAGUCGCAUUGUCUUCCGCCACUCCGCUGACCACGGGCUACUUUCUGGAGUCCAGCGAGCGAUAUGGUAAAACCAUUUCAGAA: 0.0732 ratio
UACAGCUUGCCUUUUUAAUGUUAGUCACAAUGUUUUUGUGGUUUGAAGUUUAGUUUAAUGUCCGUGCAGUGACGGGAAAUACACAUUAUGCUAAUGUUGAUGACAGAAUUUAUUUGGUUG: 0.338 ratio
CUGGUUGAUGGUGUUAAGAAAUUGUCAAUCUCUACUCCUGACAGAGGAAAAGAAGAUUCCCGUACUCCAGUUAUGAAAGAUGAGAACACCCCCAUACCACAGGACACAAGAGGCUUAUCA: 0.327 ratio
CAGAACUUACGGCCAUGCUGAAGUUGCAGUUUCAUUCAGAUGCUACCUAAAGUUUAUGUUACCCGAGUAAAAAGAUCUCACAGUGAGUUGGUUUGAUAUUUAUAUUGUGGUUCAUGUUUG: 0.289 ratio
UUCUGAUAAUUCUAGAGCCUGUUACCAUAGAAAGGUAUUUCUUCAAUGGCUGGUUGCCGUCCGUUCAUGUUUUUCAAUCAAUUUGCAAAUGUAUUUGUUGCUGUAUAGUGAUUGUUUUGC: 1.36 ratio
GGUGAGCUUCAUUUUCUCCAAAUUGGAGGAACCUGUGAUGAUAUUGAUGAAGCUGAUAUUCUGGCCGAUGGAUCCCUUUCUAAAGGAAUAGAACCAGCUCUAGAAGGUUCCAGACCUUUA: 0.162 ratio
GUAUACGGUUAUCGAGGAAAGGACUGUAGAGCGAAUGUAUACCUGCUUCCCACAGGGGAGACCGUUUAUUUUAUCGCCUCAGUGGUAGUCCUGUUUAAUUAUGAGGAGAGGACUCAGCGA: 0.249 ratio
CAGAAUACCCAGGGUCUUAUUUUUGUGGUAGAUAGCAACGAUCGUGAAAGAAUUCAGGAAGCCGCAGAUGAGCUGCAGAAAAUGCUUCUGGUAGAUGAAUUGAGAGAUGCAGUGCUGCUA: 0.235 ratio
CCACCAGAUACCGCUGCCAGACUGGGUUGGUCCCAGCCCCUAGGAAACCUUCAAGCUCCUUCCGGUUAUGAUAAAUUUAGCUAUUCUUGGCGGAGCAAAAAGGGAACCAAGUUCCACCAG: 0.488 ratio
